Measurements gathered from unrelated publications.
TMPRSS2: Transmembrane protease serine 2 (TMPRSS2, Homo sapiens, UniProt O15393)
Sequence of UniProt O15393 (whole entry, looked up): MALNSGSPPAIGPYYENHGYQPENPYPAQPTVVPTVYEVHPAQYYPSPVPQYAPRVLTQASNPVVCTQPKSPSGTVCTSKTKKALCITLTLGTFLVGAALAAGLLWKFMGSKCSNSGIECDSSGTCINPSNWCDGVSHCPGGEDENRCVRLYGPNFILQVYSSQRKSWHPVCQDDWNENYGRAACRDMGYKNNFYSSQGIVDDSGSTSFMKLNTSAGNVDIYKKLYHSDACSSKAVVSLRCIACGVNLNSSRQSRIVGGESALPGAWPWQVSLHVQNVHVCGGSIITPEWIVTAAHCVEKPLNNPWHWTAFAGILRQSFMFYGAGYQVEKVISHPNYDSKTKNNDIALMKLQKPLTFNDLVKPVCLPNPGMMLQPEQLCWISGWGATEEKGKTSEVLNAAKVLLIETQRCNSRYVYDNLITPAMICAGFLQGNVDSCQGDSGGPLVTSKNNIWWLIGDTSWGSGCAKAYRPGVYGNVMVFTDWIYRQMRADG
PFF0160c E182D: Dihydroorotate dehydrogenase (quinone), mitochondrial (PFF0160c, Plasmodium falciparum, UniProt Q08210, E182D)
Sequence of UniProt P12821 (whole entry, looked up): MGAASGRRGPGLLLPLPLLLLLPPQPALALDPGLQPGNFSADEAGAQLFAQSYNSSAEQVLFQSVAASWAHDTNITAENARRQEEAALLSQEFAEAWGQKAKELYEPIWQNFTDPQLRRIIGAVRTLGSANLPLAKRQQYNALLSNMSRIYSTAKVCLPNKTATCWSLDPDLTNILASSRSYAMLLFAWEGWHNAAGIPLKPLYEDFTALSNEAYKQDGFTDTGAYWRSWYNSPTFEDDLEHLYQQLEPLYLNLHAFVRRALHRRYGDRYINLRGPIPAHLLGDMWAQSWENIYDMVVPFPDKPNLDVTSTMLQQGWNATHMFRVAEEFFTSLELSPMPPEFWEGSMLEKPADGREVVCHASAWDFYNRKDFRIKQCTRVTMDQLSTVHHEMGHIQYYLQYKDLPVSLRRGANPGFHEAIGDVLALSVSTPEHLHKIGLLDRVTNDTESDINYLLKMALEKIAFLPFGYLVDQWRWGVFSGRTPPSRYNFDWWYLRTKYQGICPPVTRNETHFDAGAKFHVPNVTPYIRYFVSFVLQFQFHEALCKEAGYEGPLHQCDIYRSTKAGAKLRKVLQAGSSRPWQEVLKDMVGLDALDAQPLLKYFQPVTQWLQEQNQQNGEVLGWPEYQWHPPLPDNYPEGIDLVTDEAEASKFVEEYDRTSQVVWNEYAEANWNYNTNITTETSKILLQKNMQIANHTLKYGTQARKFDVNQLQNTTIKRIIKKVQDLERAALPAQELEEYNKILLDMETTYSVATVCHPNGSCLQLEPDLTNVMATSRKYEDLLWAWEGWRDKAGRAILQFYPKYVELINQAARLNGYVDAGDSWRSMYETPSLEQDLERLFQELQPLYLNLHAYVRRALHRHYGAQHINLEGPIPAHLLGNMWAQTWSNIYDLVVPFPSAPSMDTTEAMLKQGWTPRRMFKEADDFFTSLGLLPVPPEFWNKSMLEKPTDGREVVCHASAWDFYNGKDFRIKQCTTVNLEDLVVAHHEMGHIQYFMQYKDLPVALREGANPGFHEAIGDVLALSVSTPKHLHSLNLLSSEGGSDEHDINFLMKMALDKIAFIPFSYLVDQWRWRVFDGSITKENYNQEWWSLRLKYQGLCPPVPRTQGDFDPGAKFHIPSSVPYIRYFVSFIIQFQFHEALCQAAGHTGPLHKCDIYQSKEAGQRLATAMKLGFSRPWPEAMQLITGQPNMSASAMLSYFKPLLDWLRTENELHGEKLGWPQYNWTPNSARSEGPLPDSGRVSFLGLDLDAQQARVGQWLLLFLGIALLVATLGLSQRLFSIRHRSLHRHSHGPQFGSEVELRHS
Sequence of UniProt P41144 (whole entry, looked up): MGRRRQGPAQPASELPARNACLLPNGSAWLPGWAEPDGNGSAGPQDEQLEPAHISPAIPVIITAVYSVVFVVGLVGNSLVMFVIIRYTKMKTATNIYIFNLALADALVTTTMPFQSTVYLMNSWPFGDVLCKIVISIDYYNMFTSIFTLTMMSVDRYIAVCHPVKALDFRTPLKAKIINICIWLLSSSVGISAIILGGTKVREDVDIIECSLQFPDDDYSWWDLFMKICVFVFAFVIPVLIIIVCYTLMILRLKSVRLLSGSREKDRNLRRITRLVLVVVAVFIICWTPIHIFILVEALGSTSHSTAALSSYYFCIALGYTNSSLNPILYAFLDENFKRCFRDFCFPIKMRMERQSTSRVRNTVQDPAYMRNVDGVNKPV
Sequence of UniProt Q9Y5N1 (whole entry, looked up): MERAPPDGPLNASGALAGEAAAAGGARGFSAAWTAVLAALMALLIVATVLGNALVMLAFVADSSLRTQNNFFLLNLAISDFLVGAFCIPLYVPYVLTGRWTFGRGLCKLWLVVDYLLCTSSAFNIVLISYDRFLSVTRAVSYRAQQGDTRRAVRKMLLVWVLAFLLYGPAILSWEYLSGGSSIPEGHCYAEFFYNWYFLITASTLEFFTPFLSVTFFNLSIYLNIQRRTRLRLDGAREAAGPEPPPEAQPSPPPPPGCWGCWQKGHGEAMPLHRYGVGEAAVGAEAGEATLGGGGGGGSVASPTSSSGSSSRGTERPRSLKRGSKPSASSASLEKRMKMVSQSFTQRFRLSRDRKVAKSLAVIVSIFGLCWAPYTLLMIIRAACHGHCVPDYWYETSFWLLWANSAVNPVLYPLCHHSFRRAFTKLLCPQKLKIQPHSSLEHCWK
Sequence of UniProt Q86UX6 (whole entry, looked up): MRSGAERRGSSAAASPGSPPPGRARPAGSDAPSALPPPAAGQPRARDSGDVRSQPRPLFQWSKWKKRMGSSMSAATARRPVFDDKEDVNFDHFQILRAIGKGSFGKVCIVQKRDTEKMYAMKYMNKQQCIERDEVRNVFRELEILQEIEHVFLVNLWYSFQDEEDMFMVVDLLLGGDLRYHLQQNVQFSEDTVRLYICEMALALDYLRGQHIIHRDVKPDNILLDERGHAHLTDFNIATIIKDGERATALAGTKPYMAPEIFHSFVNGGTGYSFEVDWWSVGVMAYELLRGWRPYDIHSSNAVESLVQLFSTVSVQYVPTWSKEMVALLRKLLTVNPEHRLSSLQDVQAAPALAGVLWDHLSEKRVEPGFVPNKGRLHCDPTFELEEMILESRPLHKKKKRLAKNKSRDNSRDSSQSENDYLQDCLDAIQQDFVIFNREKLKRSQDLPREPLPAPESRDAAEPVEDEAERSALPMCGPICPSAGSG
Sequence of UniProt P07711 (whole entry, looked up): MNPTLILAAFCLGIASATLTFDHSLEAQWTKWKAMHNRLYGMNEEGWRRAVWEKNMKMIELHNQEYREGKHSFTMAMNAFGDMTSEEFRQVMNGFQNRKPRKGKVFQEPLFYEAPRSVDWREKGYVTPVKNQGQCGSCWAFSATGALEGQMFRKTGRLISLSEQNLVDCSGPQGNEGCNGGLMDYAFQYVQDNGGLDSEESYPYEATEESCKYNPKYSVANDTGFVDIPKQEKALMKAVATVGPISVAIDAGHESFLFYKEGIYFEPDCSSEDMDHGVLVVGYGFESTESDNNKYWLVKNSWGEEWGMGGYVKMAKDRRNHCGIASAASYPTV

| SMILES | target | assay | setting | endpoint | result |
| --- | --- | --- | --- | --- | --- |
| CC[C@@H](C)[C@@H]1CN([C@H](Cc2ccc3ccccc3c2)CN2CCC[C@H]2CN2CCNC[C@@H]2CO)CCN1CCc1ccc(Cl)c(Cl)c1 | Kappa-type opioid receptor (OPRK1, Cavia porcellus, UniProt P41144) | ligand displacement, radioligand | 0.5 µM, pH 7.5 | remaining binding | 94% |
| Oc1cc(O)cc(/C=C/c2ccc(O)cc2O)c1 | Procathepsin L (CTSL, Homo sapiens, UniProt P07711) | enzyme activity, inhibitor | 100 µM | remaining activity | 46.1% |
| N=C(N)NCCC[C@H](N)C(=O)N[C@@H](CCC(N)=O)C(=O)N[C@@H](Cc1ccc([N+](=O)[O-])cc1)C(=O)N[C@H](CCCNC(=N)N)C(=O)c1nc2ccccc2s1 | TMPRSS2 | enzyme activity, inhibitor | 1 nM | activity vs control | 42% |
| CC(C)CC(=O)OC[C@H]1O[C@@](C#N)(c2ccc3c(N)ncnn23)[C@H](O)[C@@H]1O | Angiotensin-converting enzyme (ACE, Homo sapiens, UniProt P12821) | enzyme activity, inhibitor | 20 µM | inhibition | -15% |
| N=C(N)NCCC[C@@H](NC(=O)[C@H](Cc1ccccc1)NC(=O)[C@H](CCC(N)=O)NC(=O)CCO)C(=O)c1nc2ccccc2s1 | TMPRSS2 | enzyme activity, inhibitor | 1 nM | activity vs control | 30% |
| [2H]c1c([2H])c([C@]2([2H])CCCN2C(=O)C(C)(C)Oc2ccc3cn[nH]c3c2)c([2H])c([2H])c1C([2H])([2H])[2H] | Serine/threonine-protein kinase/endoribonuclease IRE1 (ERN1, Homo sapiens, UniProt O75460) | binding, competition with immobilised ligand | 1 µM | remaining binding | 85% |
| C#Cc1n[nH]c2c(-c3cn([C@@H](C)c4ccccn4)c(=O)[nH]c3=O)cc(F)cc12 | ALK tyrosine kinase receptor (ALK, Homo sapiens, UniProt Q9UM73) | enzyme activity, inhibitor | 0.1 µM | inhibition | 10% |
| Cc1nn(C)cc1-c1nc2c(N3CCN(Cc4ccc(Cl)cc4)CC3)c(Cl)cnc2[nH]1 | Tyrosine-protein kinase ABL1, phosphorylated (ABL1, Homo sapiens, UniProt P00519, Y253F) | binding, competition with immobilised ligand | 1 µM | remaining binding | 100% |
| COc1ccccc1Cn1ccnc1SCC(=O)Nc1cccc(C(F)(F)F)c1 | PFF0160c E182D | enzyme activity, inhibitor, absorbance |  | IC50 | 4.96 µM |
| c1cncc([C@@H]2CCCN2)c1 | Histamine H3 receptor (HRH3, Homo sapiens, UniProt Q9Y5N1) | ligand displacement | 50 µM | inhibition | 14% |
| COc1ncccc1-c1cnn2ccc(N3CCN(C(=O)OC(C)C)CC3)nc12 | Serine/threonine-protein kinase 32C (STK32C, Homo sapiens, UniProt Q86UX6) | binding, competition with immobilised ligand | 1 µM | remaining binding | 62% |
| Nc1ncc(-c2nc(N3CCOCC3)nc(N3CCOCC3)n2)c(C(F)F)n1 | Epidermal growth factor receptor (EGFR, Homo sapiens, UniProt P00533) | cell-free assay, competition with immobilised ligand | 10 µM | remaining binding | 56% |
| Cc1noc(-c2cccs2)c1C(=O)NC(C)c1cccc2ccccc12 (centres unmarked) | PFF0160c E182D | enzyme activity, inhibitor, absorbance |  | IC50 | 1.94 µM |
| CC(C)[C@H](NC(=O)[C@H](Cc1ccc(O)cc1)NC(=O)[C@@H](N)Cc1ccc(O)cc1)C(=O)N[C@@H](CCCNC(=N)N)C(=O)c1nc2ccccc2s1 | TMPRSS2 | enzyme activity, inhibitor | 1 nM | activity vs control | 101% |
